Assay results of several laboratories.
Numbered parts are unrelated; each lists some results of a single study. Substitutions count along the parent as printed.

Set 1
Target: Sal-like protein 4, full length isoform A (SALL4, Homo sapiens, UniProt Q9UJQ4, residues 1-1053)
Sequence of UniProt Q9UJQ4 (whole entry, looked up): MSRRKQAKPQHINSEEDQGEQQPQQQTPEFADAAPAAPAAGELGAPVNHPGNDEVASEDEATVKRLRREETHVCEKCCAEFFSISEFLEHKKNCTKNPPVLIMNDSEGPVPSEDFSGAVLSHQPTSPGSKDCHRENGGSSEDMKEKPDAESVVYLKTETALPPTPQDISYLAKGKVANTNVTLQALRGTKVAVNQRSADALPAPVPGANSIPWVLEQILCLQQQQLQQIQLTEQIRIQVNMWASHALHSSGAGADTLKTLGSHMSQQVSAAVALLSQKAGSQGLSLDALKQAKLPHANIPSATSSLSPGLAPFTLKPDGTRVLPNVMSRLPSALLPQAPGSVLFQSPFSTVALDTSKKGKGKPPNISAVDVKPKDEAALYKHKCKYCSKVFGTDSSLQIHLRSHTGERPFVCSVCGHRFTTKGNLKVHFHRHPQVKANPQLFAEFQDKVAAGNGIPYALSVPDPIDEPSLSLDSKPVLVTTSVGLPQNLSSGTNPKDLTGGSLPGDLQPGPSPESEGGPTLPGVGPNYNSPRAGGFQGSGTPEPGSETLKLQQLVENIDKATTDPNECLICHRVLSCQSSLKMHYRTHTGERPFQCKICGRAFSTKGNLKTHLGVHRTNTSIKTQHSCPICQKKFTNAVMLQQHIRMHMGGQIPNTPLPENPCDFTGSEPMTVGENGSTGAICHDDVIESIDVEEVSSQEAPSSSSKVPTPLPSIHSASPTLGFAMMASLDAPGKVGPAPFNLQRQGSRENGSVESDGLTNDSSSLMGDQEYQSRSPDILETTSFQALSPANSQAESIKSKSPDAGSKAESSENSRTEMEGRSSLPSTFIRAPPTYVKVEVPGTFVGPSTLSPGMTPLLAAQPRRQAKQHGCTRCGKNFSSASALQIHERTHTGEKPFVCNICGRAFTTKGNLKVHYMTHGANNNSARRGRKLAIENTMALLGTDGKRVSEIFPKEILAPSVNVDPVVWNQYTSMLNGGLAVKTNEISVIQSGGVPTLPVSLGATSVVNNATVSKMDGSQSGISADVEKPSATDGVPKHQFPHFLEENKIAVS
Technique: universal PBM
Molecule type: double-stranded DNA, one strand shown
Matrix: in vitro
Concentration: 600 nM
Notes: 8-mer, flanks averaged, mean of replicates
Direction: higher = stronger binding
With `ACGCAAAA` the E-score was 0.0392.
`GTTTGCTA` gave an E-score of 0.086.
The E-score of `GATAATGC` is reported as 0.0918.
`AGTCTTAC` gave an E-score of 0.0227.
For `ACATCGAA`, the E-score was 0.15.
`CTCGGTGC` has an E-score of -0.388.
The E-score of `AACAAAAT` is reported as 0.278.
With `ACGAAAAA` the E-score was 0.24.

Set 2
Target: CCNF, cyclin fold, Cln2 fusion (human)
Technique: yeast growth competition, sequencing
Matrix: yeast
Notes: strong parent motif
Relative to: not given
Direction: higher = stronger binding
Starting sequence: viral docking peptide; PGASRRLFGSSAD
For `R5K`, “normalised enrichment score” read 0.883.
`D13A`: “normalised enrichment score” 3.38.
Under “normalised enrichment score”, `P1A` is recorded as 3.28.
`F8L` — result for “normalised enrichment score”: 0.608.
Under “normalised enrichment score”, `R5A L7A` is recorded as 0.55.
`R5A` — result for “normalised enrichment score”: 0.844.
`R6A`: “normalised enrichment score” 1.71.
`S4A` — result for “normalised enrichment score”: 5.24.
Under “normalised enrichment score”, `S10A` is recorded as 2.66.

Set 3
Target: UDP-N-acetylglucosamine--peptide N-acetylglucosaminyltransferase 110 kDa subunit (OGT, Homo sapiens, UniProt O15294)
Sequence of UniProt O15294 (whole entry, looked up): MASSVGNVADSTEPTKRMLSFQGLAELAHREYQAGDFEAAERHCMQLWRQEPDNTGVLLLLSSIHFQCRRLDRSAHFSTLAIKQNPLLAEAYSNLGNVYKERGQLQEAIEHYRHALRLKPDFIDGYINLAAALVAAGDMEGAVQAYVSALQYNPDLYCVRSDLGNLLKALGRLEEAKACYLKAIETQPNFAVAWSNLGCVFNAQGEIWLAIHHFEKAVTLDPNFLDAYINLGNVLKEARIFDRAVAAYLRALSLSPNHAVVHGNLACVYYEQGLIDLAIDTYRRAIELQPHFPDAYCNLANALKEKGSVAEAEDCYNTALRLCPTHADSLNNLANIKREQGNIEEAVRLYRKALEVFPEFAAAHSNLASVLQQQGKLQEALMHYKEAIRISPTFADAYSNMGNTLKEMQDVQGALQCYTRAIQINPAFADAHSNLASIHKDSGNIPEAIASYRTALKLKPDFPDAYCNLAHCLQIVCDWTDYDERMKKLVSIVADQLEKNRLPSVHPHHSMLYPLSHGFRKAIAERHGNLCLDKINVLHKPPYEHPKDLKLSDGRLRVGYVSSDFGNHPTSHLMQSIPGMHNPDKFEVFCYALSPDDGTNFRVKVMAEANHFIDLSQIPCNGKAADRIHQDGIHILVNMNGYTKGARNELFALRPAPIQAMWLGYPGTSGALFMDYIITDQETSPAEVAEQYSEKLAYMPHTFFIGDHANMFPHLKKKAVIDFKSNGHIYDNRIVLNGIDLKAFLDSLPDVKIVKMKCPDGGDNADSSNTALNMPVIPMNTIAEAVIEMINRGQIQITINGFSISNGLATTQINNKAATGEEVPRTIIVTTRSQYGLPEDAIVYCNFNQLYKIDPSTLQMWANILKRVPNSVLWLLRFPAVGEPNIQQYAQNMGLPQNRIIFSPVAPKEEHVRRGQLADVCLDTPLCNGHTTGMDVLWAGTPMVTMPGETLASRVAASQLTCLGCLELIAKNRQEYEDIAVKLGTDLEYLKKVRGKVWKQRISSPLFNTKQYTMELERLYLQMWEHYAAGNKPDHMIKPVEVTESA
Read-out: binding
Technique: phage display NGS
Molecule type: peptide
Notes: panning round 2
Relative to: input library
Under “minimum log2 enrichment ratio”, `AIYAQHPMHRTHIRI` is recorded as 2.21.
`HWGGVHIDHHTVNV`: “minimum log2 enrichment ratio” 2.84.
Under “minimum log2 enrichment ratio”, `GFMPVYEIYFTRSDE` is recorded as 3.18.
`TQFHNHHARDWSKQT`: “minimum log2 enrichment ratio” 2.57.

Other studies, line by line
Technique: cross-linking MS
For `HNRNPA1 (Homo sapiens, UniProt P09651)`, interaction screen read “cross-linked” (HNRNPL (Homo sapiens, UniProt P14866); hits only).
`DR1 (Homo sapiens, UniProt Q01658)`: cross-linked residues “K23 to K63” (DRAP1 (Homo sapiens, UniProt Q14919); cell fractions; added: DSSO).
For `JUP (Homo sapiens, UniProt P14923)`, interaction screen read “cross-linked” (DSP (Homo sapiens, UniProt P15924); hits only).
`ERH (Homo sapiens, UniProt P84090)` — result for cross-linked residues: “K90 to K260” (POLDIP3 (Homo sapiens, UniProt Q9BY77); cell fractions; added: DSSO).

For quick reference, copied from above (set 2):
`F8L` — result for “normalised enrichment score”: 0.608.
Under “normalised enrichment score”, `R5A L7A` is recorded as 0.55.
`R5A` — result for “normalised enrichment score”: 0.844.
